Results pooled from the literature.
“And” joins repeats or separate records; there may be more than shown. Numbers after ± are the reported error.

CCCCC1(CCCC)CN(c2ccccc2)c2cc(SC)c(OCC(=O)N[C@@H](C(=O)NCC(=O)O)c3ccccc3)cc2S(=O)(=O)C1 — plasma C4 (item: 7α-hydroxy-4-cholesten-3-one; human, plasma; 15 mg once daily, day 11): 70.5 ng/mL
Cc1cc(Nc2ncc(Cl)c(Nc3ccccc3S(=O)(=O)C(C)C)n2)c(OC(C)C)cc1C1CCNCC1 — overall survival (patients with advanced solid tumours; dose not given, added: gemcitabine): 9.8 months
Cc1cn(-c2cc(NC(=O)c3ccc(C)c(Nc4nccc(-c5cccnc5)n4)c3)cc(C(F)(F)F)c2)cn1 — median difference in change (item: total tau; human, cerebrospinal fluid; dose not given, between 12 and 6 months, unit not given; relative to: placebo): -2.49
Cc1sc2c(c1C)C(c1ccc(Cl)cc1)=N[C@@H](CC(=O)NCCCCCCCCNC(=O)COc1cccc3c1C(=O)N(C1CCC(=O)NC1=O)C3=O)c1nnc(C)n1-2 (some centres unmarked) — IFN-γ+ CD8+ T cells (flow cytometry; 4T1 tumour-bearing mice; dose not given): 0.61% and 0.31% and 0.27%
CCN1CCN(Cc2ccc(Nc3ncc(F)c(-c4cc(F)c5nc6n(c5c4)[C@H](C)CCC6)n3)nc2)CC1 — disease control rate (human advanced solid tumours; 50 mg, phase Ia monotherapy RECIST 1.1): 0%
COc1ccc(-c2cncc(N[C@@H](C)c3cccc(NC(=O)c4cncc(C)c4)c3)n2)cc1OC — fold change (item: rno-miR-100-5p; rat SU5416/hypoxia model, lung; dose not given; relative to: SU5416/hypoxia vehicle): 0.6
CC1(C)CCC2(CC1)N[C@@H](C(=O)N[C@@H]1CC[C@@H](C(N)=O)OC1)[C@H](c1ccnc(Cl)c1F)[C@]21C(=O)Nc2cc(Cl)ccc21 — disease control rate (human, solid tumours; 120 mg/day, RECIST; relative to: patients): 33.3%
C[C@@H](O)CCOC(=O)C[C@@H](C)O — metabolite level (item: Val; human, plasma; 60 min, log2-transformed values): 7.72 ± 0.21 µmol/L
Cc1coc([C@H]2C[C@H]3[C@@H](CF)SC(N)=N[C@@]3(c3ccc(F)cc3F)CO2)n1 — Aβ42 level (item: Aβx-42; Mus musculus wild-type, brain; subcutaneous, 80 mg/kg, 3 h): 0.48 ng/g
COc1cc2cc(-c3ccc(CC(=O)Nc4cc(C(C)(C)C(F)(F)F)no4)cn3)cnc2cc1OC — disease control rate (RECIST v1.1; human RET-altered solid tumours; 12 75 mg tablets, phase I): 67%
CC(C)NCC(O)c1ccc(O)c(O)c1 (centres unmarked) — sarcomere length (ventricular cardiomyocytes, C57BL/6 mouse; dose not given, 0.612 s): 1.7 µm
CSc1ccc(C(=O)/C=C/c2cc(C)c(OC(C)(C)C(=O)O)c(C)c2)cc1 — mRNA level (RT-PCR, item: ANGPTL3, Apo C-III; db/db mice, MCD diet-fed, liver; 30 mg/kg; relative to: model group): no effect
C[C@H]1O[C@@H](O[C@H]2CC[C@@]3(C)[C@@H](CC[C@]4(C)[C@@H]3C=C[C@]35OC[C@@]6(CCC(C)(C)C[C@H]63)[C@@H](O)C[C@]54C)[C@]2(C)CO)[C@H](O)[C@@H](O[C@@H]2O[C@H](CO)[C@@H](O)[C@H](O)[C@H]2O)[C@H]1O — liver index (chronic-plus-binge ethanol-fed mice; oral, 15 mg/kg/day, 7 d; relative to: body weight): 3.91% and 3.56% and 4.72% and 4.35% and 4.26% and 3.48%
COc1nc(-c2cc(C)c(N[C@@H](C)c3cc(F)cc(F)c3)nn2)ccc1-n1cnc(C)c1 — change in level (item: Aβ38; rat Sprague-Dawley male, CSF; oral, 50 mg/kg daily for 9 days, 4 h after dose; relative to: vehicle): 68%
O=C(COc1ccc(Cl)cc1)NC12CC(c3nnc([C@H]4C[C@@H](OC(F)(F)F)C4)o3)(C1)C2 — CHAC1 mRNA change (healthy human, PBMC; 200 mg once daily, day 15, 24 h post-dose, median, added: sodium arsenite ex vivo; relative to: baseline): -91.2%
NC(=O)c1cnc2[nH]ccc2c1N[C@@H]1[C@@H]2CC3C[C@H]1C[C@@](O)(C3)C2 — change from baseline (flow cytometry, item: CD4+ naive T cells; Japanese healthy subjects, peripheral blood; oral, 30 mg twice daily, day 7): -1.37%
OC(CCN1CCCCC1)(c1ccccc1)C1CC2C=CC1C2 (centres unmarked) — change in EEG Alpha1-power Pz-O1 (resting-state EEG; healthy elderly humans; oral, 2 mg, eyes closed, LS mean; relative to: baseline): -13.4%
N=C(N)NCCC[C@H](NC(=O)[C@H](CCCNC(=N)N)NC(=O)[C@H](CCCCN)NC(=O)[C@H](CCC(N)=O)NC(=O)[C@H](CCCCN)NC(=O)[C@H](Cc1ccc(O)cc1)NC(=O)[C@@H](N)CCCCN)C(=O)N[C@@H](CO)C(=O)N[C@@H](Cc1ccc(O)cc1)C(=O)N[C@@H](CCCCN)C(=O)O — median change in Schiff score (human, dentin hypersensitivity patients; topical to tooth, 10 µg/tooth repeated, day 36, phase 1/2a trial; direction not given): -1
CCOc1ccc(Cc2cc([C@@H]3S[C@H](CO)[C@@H](O)[C@H](O)[C@H]3O)c(OC)cc2C)cc1 — urinary glucose excretion (human; dose not given, multiple ascending dose): 76.9 g/day
NCC(=O)Nc1cncc(-c2nn3c(=O)cc(N4CCNCC4)nc3s2)c1 — inhibition of platelet aggregation (ADP-induced platelet aggregation, light transmission aggregometry; human stable CAD patients on aspirin, platelets ex vivo; 0.05 mg/kg, 60 min post dose, added: 20 µM ADP; relative to: placebo difference): 41.7%
Cc1cc(C)c(CNC(=O)c2cc(Cl)c3c(c2C)O[C@@](C)([C@H]2CC[C@H](N(C)C)CC2)O3)c(=O)[nH]1 — overall response rate (IWG criteria, CR or PR; relapsed/refractory PTCL-NOS patients; dose not given): 50%
CCO — change in DBP AUEC(0-4 h) (supine; concentration not given, 0 to 4 h; relative to: baseline): -31 ± 17.9 mmHg·h
CC[C@@H](C)[C@@H](NC(=O)[C@@H](Cc1ccc(O)cc1)NC(=O)[C@H]1CCCN1C(=O)[C@@H](CCCNC(=N)N)NC(=O)[C@H](N)Cc1c[nH]cn1)C(=O)N[C@H](C)C(=O)N[C@H](Cc1c[nH]cn1)C(=O)N[C@H](CCCNC(=N)N)C(=O)N[C@@H](C(=O)N[C@H](Cc1ccc(O)cc1)C(=O)N[C@H](CO)C(=O)N[C@H](Cc1ccccc1)C(N)=O)C(C)C — IFN-γ+ CD4+ T cell frequency (ex vivo flow cytometry; GL261-Luc brain tumour mice, tumour; dose not given): 2.73% and 3.21% and 2.7%
CC(C)[C@H](C(=O)Nc1ccc(C(=O)NO)cc1)c1ccccc1 — tumour volume (volumetric MRI; human, left parieto-occipital meningioma; dose not given, day 358): 0.0264 cm3
c1ccc(-c2n[nH]cc2-c2ccnc3ccccc23)nc1 — log2 fold change (kinase binding, competitor, MIB/MS competition, item: SHA3; Candida albicans cell lysate; 100 nM; relative to: DMSO): 0.868
CN(C)C(=O)Oc1cccc([N+](C)(C)C)c1 — train-of-four ratio (neuromuscular block reversal; rat; dose not given, 16.5 (unit not given), added: cisatracurium; relative to: T1 twitch): 95.3
CO[C@H]1CC[C@H](N2C(=O)CNc3ncc(-c4ccc(C(C)(C)O)nc4)nc32)CC1 — pS6RP change from baseline (flow cytometry; stimulated B cells, human, blood; 30 mg single dose, 5 h, mean; relative to: baseline): -67.5%
Cn1cc(Nc2nccc(-c3ccc4c(c3)CN(C3COC3)CC[C@H]4NC(=O)c3cn(C(C)(C)C)nn3)n2)cn1 — pathway activation z-score (item: fMLP signaling in neutrophils; splenic B cells, mice; 30 mg/kg, IgD-activated in vivo; relative to: vehicle, direction not given): 3.77
COc1ccc(F)cc1C(=O)NCc1ccc(-c2nn([C@@H](C)C(F)(F)F)c(N)c2C(N)=O)cc1 — overall response rate (CLL/SLL patients; dose not given, prior chemo, CD20, BTK agents): 67%
Cc1cnc(N2CC3(CCOCC3)C2)c(C(=O)Nc2ccc(C(=O)N3CCc4cc(C(=O)Nc5c(C)cccc5F)sc4-c4ccccc43)cc2)c1 — inhibition of MPO AUC (human, RSV infection, nasal wash; dose not given, ITT-I population; relative to: placebo): -25%
O=C(O)CNC(=O)Cc1ccccc1 — sarcomere length (ventricular cardiomyocytes, C57BL/6 mouse; dose not given, 0.78 s): 1.72 µm
CC(C)(C)c1cc(C(C)(C)C(=O)O)c(O)cc1NC(=O)c1c[nH]c2ccccc2c1=O — contraction amplitude change (rat colon ex vivo; 10 µM, added: β3 antagonist SR59230A; relative to: vehicle): 2 fold
N#Cc1ccc2c(-c3ccncc3)c(-c3ccc(F)cc3)nn2c1 — log2 fold change (kinase binding, competitor, MIB/MS competition, item: TOR1; Candida albicans cell lysate; 100 nM; relative to: DMSO): -0.881
Cc1cc(F)cc2c(CCC(=O)N[C@@H]3C(=O)NC[C@H]3O)c(-c3ccc(F)cc3)[nH]c12 — urine albumin/creatinine ratio (APOL1 G2 mice, IFNγ-induced; 30 mg/kg twice daily, day 13): 1570 µg/mg and 305 µg/mg and 89 µg/mg and 302 µg/mg and 180 µg/mg
Cc1cc([C@H]2C[C@H]3[C@@H](CF)SC(N)=N[C@@]3(c3ccc(F)cc3F)CO2)on1 — Aβ42 level (item: Aβx-42; Mus musculus wild-type, brain; subcutaneous, 100 mg/kg, 14 h): 0.71 ng/g
O=C(OC(C(F)(F)F)C(F)(F)F)N1CCN(Cc2cccc(Oc3ccccc3)c2)CC1 — tracer distribution volume (PET; rhesus monkey, frontal cortex; intravenous, 0.03 mg/kg, pretreatment blocking, added: [18F]T-401): 7.16 mL/cm3
C[C@H]1C[C@H]2CSC(N)=N[C@@]2(c2nc(NC(=O)c3ccc(OC(F)F)cn3)cs2)CO1 — percent change from baseline (item: Aβx-40; healthy adults, plasma; 125 mg once daily, day 4; relative to: placebo): -72.3%
CC1(C)CCC(c2ccc(Cl)cc2)=C(CN2CCN(c3ccc(C(=O)NS(=O)(=O)c4ccc(N[C@H](CCN5CCOCC5)CSc5ccccc5)c(S(=O)(=O)C(F)(F)F)c4)cc3)CC2)C1 — EC50 (cell killing; canine lymph node CD3+ T cells, dog 33; 24 h): 81 nM
COc1nc(NCc2cn(-c3ccc(C(N)=O)cc3)nn2)nc(OC)n1 — maximum non-toxic concentration (MTT; normal colonocytes, rat; 72 h): 4.57 ± 0.18 nM
C[C@@H](Nc1cc(F)cc(F)c1)c1cc(C(=O)N(C)C)cc2c(=O)cc(N3CCOCC3)oc12 — pPRAS40 H-score change (immunohistochemistry, item: phospho-PRAS40; human, tumor biopsy; oral, 120 mg twice daily continuous, 360 h after first dose; relative to: baseline, direction not given): -45%
O=C(/C=C/c1ccc(O)c(O)c1/C=C/c1ccc(O)c(O)c1)O[C@H](Cc1ccc(O)c(O)c1)C(=O)O — CPP (isolated myocardial tissue; 1 µM): 41.8 mmHg
Cc1ccc([C@@H]2O[C@H](CO)[C@@H](O)[C@H](O)[C@H]2O)cc1Cc1ccc(-c2ccc(F)cc2)s1 — change, mean 24 h, plasma glucose (Japanese type 2 diabetes patients; 25 mg, day 16; relative to: day 0): -42 mg/dL
CN[C@@H]1COc2c(S(=O)(=O)NC(=O)Nc3c4c(cc5c3CCC5)CCC4)cnn2C1 — inhibition (item: IL-1β; human participants, whole blood ex vivo; 300 mg twice daily, multiple doses, 145 h, added: LPS/ATP; relative to: baseline): 99.7%
N#Cc1ccn2c(-c3ccncc3)c(-c3ccc(F)cc3)nc2c1 — log2 fold change (kinase binding, competitor, MIB/MS competition, item: RTK1; Candida albicans cell lysate; 100 nM; relative to: DMSO): 0.0282
Cc1noc(C)c1-c1cc(C(O)(c2ccccn2)c2ccccn2)c2nc(C3CC3)[nH]c2c1 — maximum induction (item: HEXIM1 expression; human, peripheral blood; 9 mg, day 8, 1604 study): 109%
Cc1n[nH]c2ccc(-c3cc(OC[C@@H](N)Cc4ccccc4)cnc3-c3ccoc3)cc12 — log2 fold change (kinase binding, competitor, MIB/MS competition, item: MCK1; Candida albicans cell lysate; 1 µM; relative to: DMSO): 0.0618
C=C1CC[C@H](OCCCNC(=O)CCOCCOCCOCCOCCOCCOCCOCCOCCOCCOCCOCCOCCOCCOCCOCCOCCOCCOCCOCCOCCOCCOCCOCCOCCOCCOCCOCCOCCOCCOCCOCCOCCOCCOCCOCCOCCNC(=O)CCN2C(=O)CC(SC[C@H](NC(=O)[C@H](CCCNC(=N)N)NC(=O)[C@@H]3CCCN3C(=O)[C@H](CCC(N)=O)NC(=O)[C@H](CC(C)C)NC(=O)[C@H](CCCCN)NC(=O)[C@H](C)NC(=O)[C@@H]3CCCN3C(=O)[C@@H]3CCCN3C(=O)[C@H](CCCCN)NC(=O)[C@H](CCCCN)NC(=O)[C@H](CO)NC(=O)[C@H](CCC(=O)O)NC(=O)[C@H](CCCCN)NC(=O)[C@H](CCCNC(=N)N)NC(=O)[C@H](CCC(N)=O)NC(=O)[C@H](CCC(N)=O)NC(=O)[C@@H](NC(=O)[C@H](CCCNC(=N)N)NC(=O)[C@H](CCC(N)=O)NC(=O)[C@H](Cc3c[nH]cn3)NC(=O)[C@H](CCC(=O)O)NC(=O)[C@@H]3CCCN3C(=O)[C@H](CO)NC(=O)[C@H](CC(C)C)NC(=O)[C@H](Cc3ccccc3)NC(=O)[C@H](CNC(=O)CCCCCCC)NC(=O)[C@H](CO)NC(=O)CN)C(C)C)C(=O)O)C2=O)C/C1=C/C=C1\CCC[C@]2(C)[C@@H]([C@H](C)CCCC(C)(C)O)CC[C@@H]12 (some centres unmarked) — mRNA level (real-time RT-PCR, item: Trim63; mice, LLC tumour-bearing, tibialis anterior; daily or every other day; relative to: tumour-bearing vehicle): decreased

Excerpt of the above:
N=C(N)NCCC[C@H](NC(=O)[C@H](CCCNC(=N)N)NC(=O)[C@H](CCCCN)NC(=O)[C@H](CCC(N)=O)NC(=O)[C@H](CCCCN)NC(=O)[C@H](Cc1ccc(O)cc1)NC(=O)[C@@H](N)CCCCN)C(=O)N[C@@H](CO)C(=O)N[C@@H](Cc1ccc(O)cc1)C(=O)N[C@@H](CCCCN)C(=O)O — median change in Schiff score (human, dentin hypersensitivity patients; topical to tooth, 10 µg/tooth repeated, day 36, phase 1/2a trial; direction not given): -1
CCOc1ccc(Cc2cc([C@@H]3S[C@H](CO)[C@@H](O)[C@H](O)[C@H]3O)c(OC)cc2C)cc1 — urinary glucose excretion (human; dose not given, multiple ascending dose): 76.9 g/day
